Measurements of several laboratories.
Each numbered part is a random draw from the data of one study; scales do not carry over between parts. Substitutions count along the parent as printed.

Block 1 — technique: RNA Bind-n-Seq; molecule type: RNA; sample: in vitro; concentration: 365 nM; relative to: no-protein control; reading: higher = stronger binding
Target: RNA binding protein fox-1 homolog 2, RRM domain, GST-SBP tag (RBFOX2, Homo sapiens, UniProt O43251-10, residues 100-194)
Notes: natural RNA segment, single round, ends assumed
All sequences stand within: GGGAGUUCUACAGUCCGACGAUC … UGGAAUUCUCGGGUGCCAA
Construct (chain): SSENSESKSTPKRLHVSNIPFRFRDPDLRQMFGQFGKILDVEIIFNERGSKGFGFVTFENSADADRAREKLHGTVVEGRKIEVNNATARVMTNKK
Sequence | RBNS enrichment (R)
GGUUAUGUCUAUGUUCAUUCUAUAGAAGAAAUGCAAACUAUCACUGUAUUUUAAUAUUUGUUAUUCUCUCAUGAAUAGAAAUUUAUGUAGAAGCAAACAAAAUACUUUUA | 0.653
AGACUUUGCAAGGCCUAAUGCCAAAGGACACAAGGCCUGUGUGGUGUCUGCCACACUCAGCAGGCCCUGUAGUGGUUCUCAUUUUGGCAUCUGGCUGGCUGCCUGCCUUA | 0.299
AGGAUUGAUUCUGAGAUGACACUGUGUGCUGGCAAGGAGCAUUGGGGGGCACAGUUGUUGUUUGGUAUCCAGGCAGUUGAGCUGAGGCAUUCAUAGGAUGUCUUAGAAGA | 0.556
AAUUUAAAUGAUUACAGAGUGCUCCUGCCCAAGGAUCUCAUAGCCUGGAGUGAGGGUCAGAACUGAUUUGUUCUGUCUAUGUUUCAGCACUGGUGUGUGUUCUCUAUAAG | 0.503
CCUGGUGACGGGUGUCCAAGAAGCGGUUUCCUUGGGAGCUUCUGCCUCCGUGGGCCUCUCAGCCCGCCCCGUGUGGCCGCCCGGGUGUGGCUCAGCCAUGUCCCCUCCCC | 0.254
AGUGCUUUUCUUCUUGGGCUCCCUUCUGACCUGCAGGACAGUUUUCCUGGAGCCAUUUGGUAUGAGGUAUUAAUUUAGCUUAACUAAAUUACAGGGGACUCAGAGGCCGU | 0.379
AGCUGCAGCCAUUGGAAGAAACCUGUUACCUGAAUGCGAUUUCCUCCAUUUUCUCAACAGCUGGAGGCCUCUCAGGCACCAUCGCUCGAGUGGCUGCUGGCUCUCAAGCU | 0.305
UCUCCAGUCAUUGUAAUGUCUACAAGGAAUGCACAAUGGAGUGCUCAGAUCACUAAAAGGAGCAUCAGUGGCCCAAUUCCUCUUACUUUGGGACACACUGUCCACACUCC | 0.397
UUGAAAUGUUCUGUCAAAUGUGUCUCACAUCUACACGUGGCUUGGAGGCUUUUAUGGGGCCCUGUCCAGGUAGAAAAGAAAUGGUAUGUAGAGCUUAGAUUUCCCUAUUG | 0.385
UAAAUGAAUCCCUGGGCAGGGAAUAUGGGCUGGCCGGCUGCACCUUGGUGAACCUGCUGGUUAGGGCAGCAGCAGAGGUGAGGCUGUUCCUCUCUCUCUCUGUCUCUCUC | 0.371
UUCAUGGGCUCAUCUUUAAAGCUUUUACUAAAAGAUUUUCAGCUGAAUGGAACUCAUUAGCUGUGUGCAUAUAAAAAGAUCACAUCAGGUGGAUGGAGAGACAUUUGAUC | 0.592
ACCCUUUGCUGCUGACCUCGGCUGCUCCUCUCACAGACCCUCUUUGGCCCCCUGCCCUCCUCUCCCUCCCAGAUGGACCCUUCCAUGGGAGGAAAUAAAGUUUCCAUCGC | 0.301

Block 2 — technique: RNA Bind-n-Seq; molecule type: RNA; sample: in vitro; concentration: 1 µM; notes: whole 134-nt RNA, ends assumed; with: 150 mM KCl; relative to: input library; reading: higher = stronger binding
Target: Ras GTPase-activating protein-binding protein 1, C-terminal RGG region (G3BP1, Homo sapiens, UniProt Q13283)
UniProt Q13283, sequence (whole entry, looked up): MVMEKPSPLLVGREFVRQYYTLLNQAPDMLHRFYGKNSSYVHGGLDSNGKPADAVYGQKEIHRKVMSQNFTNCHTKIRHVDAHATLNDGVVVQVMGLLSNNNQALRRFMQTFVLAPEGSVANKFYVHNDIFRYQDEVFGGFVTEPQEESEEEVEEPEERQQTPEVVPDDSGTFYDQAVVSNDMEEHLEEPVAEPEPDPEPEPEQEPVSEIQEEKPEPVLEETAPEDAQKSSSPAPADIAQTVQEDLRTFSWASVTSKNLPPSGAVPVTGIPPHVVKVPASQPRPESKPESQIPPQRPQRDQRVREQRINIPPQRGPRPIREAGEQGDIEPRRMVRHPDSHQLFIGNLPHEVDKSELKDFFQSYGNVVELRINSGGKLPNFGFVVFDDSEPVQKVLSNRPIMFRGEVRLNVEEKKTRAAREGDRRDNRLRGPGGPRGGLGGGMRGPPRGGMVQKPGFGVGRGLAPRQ
All sequences stand within: GGGAGUUCUACAGUCCGACGAUC … UGGAAUUCUCGGGUGUCAAGG
Sequence | log2 enrichment
GUAGCUGCUCCAGUGGGCCCAGUGGGCCCCACUCCUACAGUUUUGCCCAUGGGAGCCCCUGUUCCCCGGCCUCGUGGUCCCCCACCGCCC | 0.36
GCAGGAAGUAAAAACAAAUGGAAAUGCUUCAAAUAGUGGCAGGGGUGGGGGUUGCUAAGGAAAGGGUGGGAUGGGAGUGGGUAAAGAGUU | 1.78
UCCUCAAGUCCUGUGCUACACAUCGUAUGUACCGAAUCGGGCGGGCGGGCGGAAAGUAUUAUGUUACGCCGUUCGGAUCUGCACUUCCAG | 1.98
AAAUAUCAGUGAUCAUCGCAAGGAAGGAGGCAGACAAGAGUAAGGCACACCUGACUCUUAGGACUAGCAGUCAGAACCAGGAGGAAAGGU | -1.21
AGUCCUGUGCUACACAUCGUAUGUACCGAAUCGGGGAGGGGAGGGGAAAAAAAGGGGAAAGUAUUAUGUUACGCCGUUCGGAUCUGCACU | 1.55
CACAGACAACACGCACCCACACAUACACAGAGGGAAGGGGUUGGGAUGGGGACAGGGUGCACAGCAGGGCGGGGUAGGACCCCAGCCCCU | -0.278
CCUCAAGUCCUGUGCUACACAUCGUAUGUACCGAAUCGGUUGGUUGGGUUGGGAAAGUAUUAUGUUACGCCGUUCGGAUCUGCACUUCCA | -0.956
UCCUGUGCUACACAUCGUAUGUACCGAAUCAAAUUUUUUUAAAUUUUUAAACCCCCAAAAAAGUAUUAUGUUACGCCGUUCGGAUCUGCA | -0.531
UCAAUGCCGGCUAUGCCCUGGCCCCAGCCACCAGUGCCAACGACAGCGAGCAGCAGAGCCUGUCCAGCGAUGCAGACACCCUGUCCCUCA | -0.209
UGACUUUAGAGGAGGAUCUGAUGGAUAUGGCAGUGGACGUGGAUUUGGGGAUGGCUAUAAUGGGUAUGGAGGAGGACCUGGAGGUGGCAA | -1.33
UAACUUUAGAGGAGGAUCUGAUGGAUAUGGCAGUGGACGUGGAUUUGGGGAUGGCUAUAAUGGGUAUGGAGGAGGACCUGGAGCUGGCAA | -0.665
GUCCUGUGCUACACAUCGUAUGUACCGAAUCGGGGUUUUUUGGUUUUUUGGUUUUUUGGAAAGUAUUAUGUUACGCCGUUCGGAUCUGCA | -1.56
CUGUGCUACACAUCGUAUGUACCGAAUCGGGGAAAAAAAGGAAAAAAAGGGAAAAAAAGGGAAAGUAUUAUGUUACGCCGUUCGGAUCUG | -1.72
AGUCCUGUGCUACACAUCGUAUGUACCGAAUCGGGGCCCCGGGCCCCGGCCCCGGGGAAAGUAUUAUGUUACGCCGUUCGGAUCUGCACU | -2.21

Block 3 — target: CCNB3, cyclin fold, Cln2 fusion (human); technique: yeast growth competition, sequencing; sample: yeast; notes: weak parent motif; relative to: not given; reading: higher = stronger binding
Parent: MICAL3 docking peptide (human); LQLRRQLSFSEDS; partner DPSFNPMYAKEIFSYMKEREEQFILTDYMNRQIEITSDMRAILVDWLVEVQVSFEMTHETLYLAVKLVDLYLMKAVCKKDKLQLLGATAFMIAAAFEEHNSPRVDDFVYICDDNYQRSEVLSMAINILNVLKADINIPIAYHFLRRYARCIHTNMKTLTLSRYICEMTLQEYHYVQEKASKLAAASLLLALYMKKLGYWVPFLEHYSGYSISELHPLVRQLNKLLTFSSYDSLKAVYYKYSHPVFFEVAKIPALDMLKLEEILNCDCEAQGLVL
Substitution | normalised enrichment score
S10M | 0.185
D12P | 0.337
E11S | 0.149
F9W | 0.144
R4D | -0.0167
S8M | 0.154
L3I | 0.375
L7E | 0.347
S10P | 0.257
Q6Y | 0.345
S8N | 0.0919
D12G | -0.0212
Q6W | 0.297
L3Q | -0.105
Q2T | 0.0779
S10Y | 0.354

Block 4 — technique: protein-binding microarray; molecule type: double-stranded DNA, one strand shown; sample: in vitro; concentration: 250 nM; notes: 60-bp whole probe; with: salmon DNA 0.4 mg/ml; relative to: random background probes; reading: higher = stronger binding; all sequences stand within: GCCTAGCAC … GTCTTGATTCGCTTGACGCTGCTG
Target: Interferon regulatory factor 7, full length, phosphomimetic (IRF7, Homo sapiens, UniProt Q92985, residues 1-503, S101K/S471D/S472D/S475D/S476D/S477D/S483D/S484D/S487D)
UniProt Q92985, sequence (whole entry, unmodified, looked up): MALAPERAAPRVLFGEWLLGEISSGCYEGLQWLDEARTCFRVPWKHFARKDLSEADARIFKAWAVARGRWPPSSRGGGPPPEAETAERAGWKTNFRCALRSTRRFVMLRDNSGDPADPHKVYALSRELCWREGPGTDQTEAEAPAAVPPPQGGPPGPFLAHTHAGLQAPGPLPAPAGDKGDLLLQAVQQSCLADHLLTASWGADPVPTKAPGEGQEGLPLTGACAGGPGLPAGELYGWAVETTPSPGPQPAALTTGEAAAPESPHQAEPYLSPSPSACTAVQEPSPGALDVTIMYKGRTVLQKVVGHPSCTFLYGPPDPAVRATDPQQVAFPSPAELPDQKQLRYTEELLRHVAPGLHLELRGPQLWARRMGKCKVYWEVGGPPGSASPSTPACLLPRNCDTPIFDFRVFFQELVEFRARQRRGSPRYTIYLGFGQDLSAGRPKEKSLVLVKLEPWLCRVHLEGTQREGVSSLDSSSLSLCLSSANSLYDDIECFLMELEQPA
Sequence | log fluorescence
TTAGGTCTCGGTTCCGGTTAGTGCTAG | 5.45 z-score
TTAGATTTCAGTCCCGATTAGTGCTAG | 0.912 z-score
GCCGGTTTCCTACTGCTGACGTGCTAG | 2.04 z-score
TCACACATTTTTTTCATACTGTGCTAG | 0.818 z-score
CTGGACCCACTTCCAAATGGGTGCTAG | 1.2 z-score
GACGGACTGGACACTGGGGTCGTGCTA | -0.54 z-score
GGATGAGTCACTTCTGGTGCTGTGCTA | -0.964 z-score
GACGATATCGGGTTTCGACACGTGCTA | 1.67 z-score
TTAGGACTGGGGACTGGCTTAGTGCTA | -0.726 z-score
CTAGTTTCCATTTTCAGAATGTGCTAG | 11.4 z-score
TCATTTTTCTCCTATTTAACTGTGCTA | 1.58 z-score
GACGGACTGCTACTGCTTACGTGCTAG | -0.639 z-score
GAGGATCTCAGTATCGAGACGTGCTAG | -0.285 z-score
TCAAACATCATTGTCATACTGTGCTAG | -0.36 z-score
TTAGGACTGGGGAATGGGTTAGTGCTA | -0.249 z-score
GACGATTGCAGTATCGAGACGTGCTAG | -0.0344 z-score

Single results of other studies
Substance | target | assay | test system | conditions | scale | endpoint | result
PhoQ, residues 284 288 289 292 302 303 TNASYF | PhoP, residues 12 14 15 18 19 TQAIL (Escherichia coli, UniProt P23836) | Sort-seq, item: YFP reporter | E. coli | PhoQ-PhoP variant library, with: 10 µM Mg2+ | relative to: high Mg2+ state, higher = stronger signaling | fold induction | 19.4
